Experimental data gathered from unrelated publications.
Numbered parts are unrelated; each lists some results of a single study.
Chain of UniProt O15294 (whole entry, looked up): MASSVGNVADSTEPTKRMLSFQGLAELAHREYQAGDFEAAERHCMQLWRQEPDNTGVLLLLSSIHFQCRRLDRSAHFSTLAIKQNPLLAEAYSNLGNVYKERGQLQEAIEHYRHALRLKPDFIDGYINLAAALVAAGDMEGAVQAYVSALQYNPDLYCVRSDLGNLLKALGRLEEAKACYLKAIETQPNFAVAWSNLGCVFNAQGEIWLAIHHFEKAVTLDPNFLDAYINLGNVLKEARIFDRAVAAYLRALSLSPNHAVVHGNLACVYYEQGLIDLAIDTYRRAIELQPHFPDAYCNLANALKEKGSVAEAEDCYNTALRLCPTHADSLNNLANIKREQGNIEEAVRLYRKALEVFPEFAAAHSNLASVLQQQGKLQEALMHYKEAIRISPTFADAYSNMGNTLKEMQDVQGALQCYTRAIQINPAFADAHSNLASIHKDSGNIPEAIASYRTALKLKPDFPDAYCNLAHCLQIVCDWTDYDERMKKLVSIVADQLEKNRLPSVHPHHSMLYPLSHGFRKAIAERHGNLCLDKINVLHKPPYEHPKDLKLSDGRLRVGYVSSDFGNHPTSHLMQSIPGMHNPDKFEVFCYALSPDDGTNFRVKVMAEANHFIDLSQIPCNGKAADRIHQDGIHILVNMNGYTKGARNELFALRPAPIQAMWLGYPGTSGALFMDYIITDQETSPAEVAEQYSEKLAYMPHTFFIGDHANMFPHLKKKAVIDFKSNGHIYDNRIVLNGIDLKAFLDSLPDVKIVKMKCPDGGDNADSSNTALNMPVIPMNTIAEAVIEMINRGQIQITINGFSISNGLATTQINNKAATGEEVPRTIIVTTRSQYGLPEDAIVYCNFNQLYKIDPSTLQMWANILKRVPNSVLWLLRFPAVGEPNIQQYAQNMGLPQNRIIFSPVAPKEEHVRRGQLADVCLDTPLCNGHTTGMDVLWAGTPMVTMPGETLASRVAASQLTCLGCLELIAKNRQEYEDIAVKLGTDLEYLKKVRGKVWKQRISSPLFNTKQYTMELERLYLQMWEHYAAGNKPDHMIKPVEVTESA

Study 1
Target: Phosphate system positive regulatory protein PHO4, full length, GST-tagged (PHO4, Saccharomyces cerevisiae, UniProt P07270, residues 1-312)
Method: competition protein-binding microarray
Form: double-stranded DNA, one strand shown
Matrix: in vitro
Tested at: 2 µM
Setting: whole 60-bp probe, lowest competitor level
Together with: Cbf1 competitor, 0.05 µM
Reading: higher = stronger binding
All sequences stand within: … GTCTTGATTCGCTTGACGCTGCTG
Construct (chain): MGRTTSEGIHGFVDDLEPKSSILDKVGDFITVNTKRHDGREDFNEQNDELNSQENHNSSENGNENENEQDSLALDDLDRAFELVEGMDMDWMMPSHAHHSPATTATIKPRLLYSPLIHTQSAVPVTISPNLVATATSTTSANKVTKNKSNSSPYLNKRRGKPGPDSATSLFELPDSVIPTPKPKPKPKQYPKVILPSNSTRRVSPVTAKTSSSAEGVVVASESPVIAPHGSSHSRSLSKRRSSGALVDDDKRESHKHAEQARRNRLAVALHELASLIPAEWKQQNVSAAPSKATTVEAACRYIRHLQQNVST
Sequence | fluorescence intensity [a.u.]
CTCCGAAAAGAATAGCATGTGCAAGATGAGTTACCG | 11400
CCATCAAGTGTTCGTCACGTTTTTGCCGCCGAACTC | 14000
CAAGAAATAAAAGAAAACGTGACTCGAGGCCTCCAT | 12800
CCGCAGACTTTAAGTGCCGTGACGGGTTCCTGGTTA | 3080
TGGACCATCCAAGTACTCGTGAAGATCCGAGCCACA | 3740
AAATTACTAAGTTGGTAAGTGGGTGACGCCGTATGA | 3250
ACTAAAAGGCGCTGGCACGATTTTCTTTGATGCTAA | 7600
AGGACCTGCGTCCTTCACGCTGAAGCGGCAGCAAGC | 3220

Study 2
Target: Fragile X messenger ribonucleoprotein 1, C-terminal low-complexity region (Fmr1, Mus musculus, UniProt P35922)
Method: RNA Bind-n-Seq
Form: RNA
Matrix: in vitro
Tested at: 200 nM
Setting: whole 134-nt RNA, ends assumed
Together with: 150 mM KCl
Relative to: input library
Reading: higher = stronger binding
All sequences stand within: GGGAGUUCUACAGUCCGACGAUC … UGGAAUUCUCGGGUGUCAAGG
Sequence | log2 enrichment
UUUGUAGAGCAGCCCGACGGCCAUGGAGGCUGAAGAGACGAUGGAAUGCCUUCAGGAGUUCCCUGAACAUCAUAAAAUGAUCCUCGACCG | -0.635
GCAGGAAGUAAAAACAAAUGGAAAUGCUUCGGAUAGUGGCAGGGGUGGGGGUUGCUAAGGAAAGGGCGGGAUGGGAGUGGGUAAAGAGUU | 0.348
AGUCCUGUGCUACACAUCGUAUGUACCGAAUCGGCCCCCGGGCCCCCGGGCCCCCGGGAAAGUAUUAUGUUACGCCGUUCGGAUCUGCAC | -0.755
CAAGUCCUGUGCUACACAUCGUAUGUACCGAAUCGUGUGUGUGUGUGUGUGUGUGAAAGUAUUAUGUUACGCCGUUCGGAUCUGCACUUC | 0.474
CACAGACAAGACGCACCCACACAGACACAGAGGGAAGGGGUUGGGAUGGGGACAGGGUGCACAGCAGGGCGGGGUAGGACCCCAGCCCCU | 1.18
ACCAUGCAGGUGGGCAUCUUUGGGAAGUGGGGCAAGGGGGGGAUAGGGAGGGGGGUAACACUUUGGGAACAGGUGGUCCAAAGUCGUUUC | 0.78
CCUCAAGUCCUGUGCUACACAUCGUAUGUACCGAAUCGGGAGGGAGGGUGGGAAAGUAUUAUGUUACGCCGUUCGGAUCUGCACUUCCAG | 1.2
GCAGGAAGUAAAAACAAAUGGAAAUGCUUCGGAUAGUGGCAGGGGUGGGGGUUGCUAAGGAAAGGGUGGGAUGGGAGUGGAAAAAGAGUU | 0.291

Study 3
Target: Runt-related transcription factor 1, full length (RUNX1, Homo sapiens, UniProt Q01196-8, residues 1-480)
Method: protein-binding microarray
Form: hairpin DNA
Matrix: in vitro
Tested at: not given
Setting: whole hairpin DNA, median over replicate spots
Relative to: not given
Reading: higher = stronger binding
Sequence | median fluorescence
GCGGCCTGTCGCGGTTGGCCTCCTGGCCAACCGCGACAGGCCGCACACTC (5mC at 2) | 2790 a.u.
GAGGCCTGGCGCGGTTGGCCTCCTGGCCAACCGCGCCAGGCCTCACACTC | 2350 a.u.
GAGGCCTGTTCCGGTTGGCCTCCTGGCCAACCGGAACAGGCCTCACACTC (5mC at 11) | 1730 a.u.
GAGGCCTGTCGCGGTTGGCCTCCTGGCCAACCGCGACAGGCCTCACACTC (5mC at 10 12 34) | 3270 a.u.
GAGGCCTGTGGTGGTTGGCCTCCTGGCCAACCACCACAGGCCTCACACTC (5mC at 35) | 2100 a.u.
CTCAGCGCTGTGGGCTGGACTCCTGTCCAGCCCACAGCGCTGAGACACTC (5mC at 6) | 1840 a.u.
GAGGCCCAACCGCAAAAGCCTCCTGGCTTTTGCGGTTGGGCCTCACACTC | 7010 a.u.
GAGGCCTGTCACGGTTGGCCTCCTGGCCAACCGTGACAGGCCTCACACTC | 1670 a.u.

Further values, each from its own experiment
Molecule | target | test | test system | setting | how to read | measurement | result
HIHLHAQENPKVPYH | UDP-N-acetylglucosamine--peptide N-acetylglucosaminyltransferase 110 kDa subunit (OGT, Homo sapiens, UniProt O15294) | binding, phage display NGS | peptide | concentration not given | relative to: input library | enrichment fold change | 4.6

Excerpt of the above (study 3):
Sequence | median fluorescence
GAGGCCTGGCGCGGTTGGCCTCCTGGCCAACCGCGCCAGGCCTCACACTC | 2350 a.u.
GAGGCCTGTTCCGGTTGGCCTCCTGGCCAACCGGAACAGGCCTCACACTC (5mC at 11) | 1730 a.u.
GAGGCCTGTCGCGGTTGGCCTCCTGGCCAACCGCGACAGGCCTCACACTC (5mC at 10 12 34) | 3270 a.u.
